Measured values pooled from the literature.
Each numbered part is a random draw from the data of one study; scales do not carry over between parts.
Sequence of UniProt Q9Y4K4 (whole entry, looked up): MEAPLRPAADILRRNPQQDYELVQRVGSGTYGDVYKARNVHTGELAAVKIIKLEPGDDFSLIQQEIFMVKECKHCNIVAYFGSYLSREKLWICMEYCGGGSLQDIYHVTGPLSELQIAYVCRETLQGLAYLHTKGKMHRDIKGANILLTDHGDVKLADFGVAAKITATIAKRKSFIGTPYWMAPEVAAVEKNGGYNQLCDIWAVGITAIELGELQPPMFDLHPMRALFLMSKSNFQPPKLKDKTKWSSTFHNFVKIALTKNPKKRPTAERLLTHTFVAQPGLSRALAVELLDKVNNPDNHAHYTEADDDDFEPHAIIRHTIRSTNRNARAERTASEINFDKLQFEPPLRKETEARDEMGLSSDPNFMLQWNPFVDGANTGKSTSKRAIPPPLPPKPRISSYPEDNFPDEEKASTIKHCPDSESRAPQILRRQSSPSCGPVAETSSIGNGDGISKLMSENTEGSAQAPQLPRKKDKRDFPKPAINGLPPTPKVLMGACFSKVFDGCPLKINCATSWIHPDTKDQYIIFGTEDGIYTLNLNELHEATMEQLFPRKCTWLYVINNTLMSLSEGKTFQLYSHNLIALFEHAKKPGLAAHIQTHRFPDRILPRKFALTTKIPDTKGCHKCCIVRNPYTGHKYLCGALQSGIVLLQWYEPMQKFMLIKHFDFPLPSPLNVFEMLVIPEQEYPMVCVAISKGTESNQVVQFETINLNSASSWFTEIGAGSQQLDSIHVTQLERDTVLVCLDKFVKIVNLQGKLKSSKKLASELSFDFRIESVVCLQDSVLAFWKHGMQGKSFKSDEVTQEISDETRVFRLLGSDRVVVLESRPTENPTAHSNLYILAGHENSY
Sequence of UniProt P15735 (whole entry, looked up): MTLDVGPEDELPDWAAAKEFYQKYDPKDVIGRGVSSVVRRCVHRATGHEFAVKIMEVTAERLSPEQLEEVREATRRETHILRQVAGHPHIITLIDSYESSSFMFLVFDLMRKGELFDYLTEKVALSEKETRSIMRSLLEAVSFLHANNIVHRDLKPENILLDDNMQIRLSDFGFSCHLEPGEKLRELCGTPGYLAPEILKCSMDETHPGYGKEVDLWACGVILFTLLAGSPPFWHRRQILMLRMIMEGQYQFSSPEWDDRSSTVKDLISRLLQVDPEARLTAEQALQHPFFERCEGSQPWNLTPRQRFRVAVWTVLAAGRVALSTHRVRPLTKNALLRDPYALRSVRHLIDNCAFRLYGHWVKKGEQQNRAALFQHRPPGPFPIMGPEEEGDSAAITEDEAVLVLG
Sequence of UniProt P08631 (whole entry, looked up): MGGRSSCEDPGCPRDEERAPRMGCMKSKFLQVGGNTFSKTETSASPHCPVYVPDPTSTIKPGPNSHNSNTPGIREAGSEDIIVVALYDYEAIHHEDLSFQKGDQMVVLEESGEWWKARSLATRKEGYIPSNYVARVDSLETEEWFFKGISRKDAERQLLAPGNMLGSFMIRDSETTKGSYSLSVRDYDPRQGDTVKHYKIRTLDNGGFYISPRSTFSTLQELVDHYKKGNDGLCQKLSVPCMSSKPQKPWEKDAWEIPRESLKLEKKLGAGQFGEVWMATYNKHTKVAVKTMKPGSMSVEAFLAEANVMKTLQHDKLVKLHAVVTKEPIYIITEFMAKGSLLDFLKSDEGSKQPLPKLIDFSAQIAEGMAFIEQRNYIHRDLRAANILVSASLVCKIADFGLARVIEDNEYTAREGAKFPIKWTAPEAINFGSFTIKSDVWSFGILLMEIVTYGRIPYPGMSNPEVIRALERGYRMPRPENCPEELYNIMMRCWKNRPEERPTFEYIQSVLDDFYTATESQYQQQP
Sequence of UniProt P04049 (whole entry, looked up): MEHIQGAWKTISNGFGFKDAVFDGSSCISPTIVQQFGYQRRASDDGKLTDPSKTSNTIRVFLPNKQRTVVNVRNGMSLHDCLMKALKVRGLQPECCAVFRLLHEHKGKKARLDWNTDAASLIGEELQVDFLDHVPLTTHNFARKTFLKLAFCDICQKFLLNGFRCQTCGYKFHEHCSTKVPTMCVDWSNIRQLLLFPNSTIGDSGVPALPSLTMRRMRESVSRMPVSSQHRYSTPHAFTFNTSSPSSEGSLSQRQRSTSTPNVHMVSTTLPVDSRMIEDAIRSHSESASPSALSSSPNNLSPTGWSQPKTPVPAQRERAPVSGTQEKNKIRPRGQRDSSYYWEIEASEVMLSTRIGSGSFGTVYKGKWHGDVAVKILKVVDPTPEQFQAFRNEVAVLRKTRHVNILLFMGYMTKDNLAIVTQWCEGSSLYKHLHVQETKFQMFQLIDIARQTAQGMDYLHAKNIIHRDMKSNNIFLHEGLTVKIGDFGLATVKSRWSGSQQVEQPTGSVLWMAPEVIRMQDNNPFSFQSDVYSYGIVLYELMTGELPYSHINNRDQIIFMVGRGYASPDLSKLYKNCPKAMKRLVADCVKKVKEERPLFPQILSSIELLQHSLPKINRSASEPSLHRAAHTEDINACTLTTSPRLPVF
Sequence of UniProt O94806 (whole entry, looked up): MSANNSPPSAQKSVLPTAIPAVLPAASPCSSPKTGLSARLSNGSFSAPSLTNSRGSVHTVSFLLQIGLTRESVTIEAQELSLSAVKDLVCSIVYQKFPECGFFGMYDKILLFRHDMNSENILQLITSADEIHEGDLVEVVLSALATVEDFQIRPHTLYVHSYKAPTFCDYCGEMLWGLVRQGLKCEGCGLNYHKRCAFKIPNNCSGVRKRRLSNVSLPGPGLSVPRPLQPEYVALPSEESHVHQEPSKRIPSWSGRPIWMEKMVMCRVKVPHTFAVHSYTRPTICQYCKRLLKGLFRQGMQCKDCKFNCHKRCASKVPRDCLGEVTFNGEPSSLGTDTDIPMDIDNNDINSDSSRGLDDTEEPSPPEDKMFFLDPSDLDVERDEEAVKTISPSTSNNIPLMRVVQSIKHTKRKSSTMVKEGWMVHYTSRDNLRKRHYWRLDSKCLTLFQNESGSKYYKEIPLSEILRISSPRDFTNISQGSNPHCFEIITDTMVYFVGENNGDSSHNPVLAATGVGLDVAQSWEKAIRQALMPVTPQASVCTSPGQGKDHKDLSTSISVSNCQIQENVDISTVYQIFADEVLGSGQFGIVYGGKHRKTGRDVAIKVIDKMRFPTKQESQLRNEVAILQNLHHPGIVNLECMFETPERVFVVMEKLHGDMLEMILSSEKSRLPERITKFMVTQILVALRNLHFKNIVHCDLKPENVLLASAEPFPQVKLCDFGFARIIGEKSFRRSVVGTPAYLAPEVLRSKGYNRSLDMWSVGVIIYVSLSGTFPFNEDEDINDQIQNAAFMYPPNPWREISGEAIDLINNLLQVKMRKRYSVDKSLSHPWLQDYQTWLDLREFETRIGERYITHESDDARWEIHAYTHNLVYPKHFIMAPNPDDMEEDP
Sequence of UniProt Q07912 (whole entry, looked up): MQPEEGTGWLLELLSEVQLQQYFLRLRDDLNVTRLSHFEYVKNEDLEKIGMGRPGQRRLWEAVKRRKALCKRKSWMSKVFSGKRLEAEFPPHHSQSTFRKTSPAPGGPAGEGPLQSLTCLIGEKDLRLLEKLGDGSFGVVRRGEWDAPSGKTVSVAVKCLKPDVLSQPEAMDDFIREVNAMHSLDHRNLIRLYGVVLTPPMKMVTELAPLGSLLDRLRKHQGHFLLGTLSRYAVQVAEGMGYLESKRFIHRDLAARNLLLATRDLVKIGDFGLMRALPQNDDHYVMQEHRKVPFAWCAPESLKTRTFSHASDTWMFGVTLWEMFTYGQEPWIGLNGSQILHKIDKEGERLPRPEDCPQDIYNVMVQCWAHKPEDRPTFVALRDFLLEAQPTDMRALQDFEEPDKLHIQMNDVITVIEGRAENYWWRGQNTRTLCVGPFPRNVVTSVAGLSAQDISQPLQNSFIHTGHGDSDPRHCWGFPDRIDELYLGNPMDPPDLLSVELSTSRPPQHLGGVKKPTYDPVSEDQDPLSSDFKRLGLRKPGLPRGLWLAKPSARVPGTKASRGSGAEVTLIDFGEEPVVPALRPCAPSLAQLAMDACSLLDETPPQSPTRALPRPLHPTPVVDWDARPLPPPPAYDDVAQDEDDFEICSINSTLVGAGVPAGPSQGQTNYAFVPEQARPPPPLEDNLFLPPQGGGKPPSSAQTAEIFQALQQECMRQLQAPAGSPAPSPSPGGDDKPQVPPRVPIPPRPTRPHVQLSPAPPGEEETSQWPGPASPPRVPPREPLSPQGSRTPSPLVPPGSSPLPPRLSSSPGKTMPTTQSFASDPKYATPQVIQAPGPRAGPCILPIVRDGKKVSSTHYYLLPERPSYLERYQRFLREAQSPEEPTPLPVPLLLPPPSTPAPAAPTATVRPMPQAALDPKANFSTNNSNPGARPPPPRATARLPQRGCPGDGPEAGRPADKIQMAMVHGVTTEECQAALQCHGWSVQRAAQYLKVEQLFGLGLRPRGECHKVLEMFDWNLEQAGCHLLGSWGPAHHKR

Sample 1 — observed: enzyme activity; mode: inhibitor; tested at: 0.5 µM; relative to: control
Compound: Nc1[nH]nc2nnc(-c3c(-c4ccccc4)nn4ccccc34)cc12
| target | remaining activity |
| --- | --- |
| Activin receptor type-1 (ACVR1, Homo sapiens, UniProt Q04771) | 107% |
| Serine/threonine-protein kinase TAO1 (TAOK1, Homo sapiens, UniProt Q7L7X3) | 95.8% |
| Activated CDC42 kinase 1 (TNK2, Homo sapiens, UniProt Q07912) | 82.7% |
| BDNF/NT-3 growth factors receptor (NTRK2, Homo sapiens, UniProt Q16620) | 89.7% |
| Fibroblast growth factor receptor 2 (FGFR2, Homo sapiens, UniProt P21802) | 102% |
| Serine/threonine-protein kinase VRK1 (VRK1, Homo sapiens, UniProt Q99986) | 92.2% |
| Dual specificity tyrosine-phosphorylation-regulated kinase 2 (DYRK2, Homo sapiens, UniProt Q92630) | 103% |
| Serine/threonine-protein kinase ULK1 (ULK1, Homo sapiens, UniProt O75385) | 97.1% |
| Dual serine/threonine and tyrosine protein kinase (DSTYK, Homo sapiens, UniProt Q6XUX3) | 95.9% |
| Phosphorylase b kinase gamma catalytic chain, liver/testis isoform (PHKG2, Homo sapiens, UniProt P15735) | 82.6% |
| Mitogen-activated protein kinase kinase kinase kinase 5 (MAP4K5, Homo sapiens, UniProt Q9Y4K4) | 50.3% |
| Serine/threonine-protein kinase PLK1 (PLK1, Homo sapiens, UniProt P53350) | 98.1% |
| Serine/threonine-protein kinase D3 (PRKD3, Homo sapiens, UniProt O94806) | 58.9% |
| RAF proto-oncogene serine/threonine-protein kinase (RAF1, Homo sapiens, UniProt P04049) | 95.6% |
| Platelet-derived growth factor receptor beta (PDGFRB, Homo sapiens, UniProt P09619) | 114% |
| Tyrosine-protein kinase HCK (HCK, Homo sapiens, UniProt P08631) | 91.1% |
| Receptor-interacting serine/threonine-protein kinase 2 (RIPK2, Homo sapiens, UniProt O43353) | 87% |
| Insulin receptor-related protein (INSRR, Homo sapiens, UniProt P14616) | 95.7% |
| Mitogen-activated protein kinase kinase kinase 9 (MAP3K9, Homo sapiens, UniProt P80192) | 99.9% |
| Serine/threonine-protein kinase Sgk3 (SGK3, Homo sapiens, UniProt Q96BR1) | 90.2% |

Sample 2 — observed: binding; method: radioligand binding; tested at: 10 µM
Target: Alpha-1D adrenergic receptor (ADRA1D, Homo sapiens, UniProt P25100)
Sequence of UniProt P25100 (whole entry, looked up): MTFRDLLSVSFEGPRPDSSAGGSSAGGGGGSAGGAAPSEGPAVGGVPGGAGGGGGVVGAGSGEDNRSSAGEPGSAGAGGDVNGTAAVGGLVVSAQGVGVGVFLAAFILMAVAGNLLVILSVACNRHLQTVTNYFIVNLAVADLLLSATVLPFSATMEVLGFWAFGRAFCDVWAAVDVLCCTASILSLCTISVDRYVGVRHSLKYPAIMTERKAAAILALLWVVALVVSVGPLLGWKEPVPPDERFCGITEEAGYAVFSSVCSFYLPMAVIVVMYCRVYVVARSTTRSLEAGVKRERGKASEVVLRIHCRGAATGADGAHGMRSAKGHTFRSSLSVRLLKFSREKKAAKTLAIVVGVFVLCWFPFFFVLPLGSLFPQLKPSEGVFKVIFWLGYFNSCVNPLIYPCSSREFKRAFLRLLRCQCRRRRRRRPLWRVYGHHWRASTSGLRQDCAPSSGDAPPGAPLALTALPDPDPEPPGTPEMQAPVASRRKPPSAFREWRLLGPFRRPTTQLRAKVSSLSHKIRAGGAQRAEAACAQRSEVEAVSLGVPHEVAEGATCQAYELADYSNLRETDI
| SMILES | inhibition [%] |
| --- | --- |
| CN(C)C(=O)Cn1cc(-c2nc([C@@](C)(c3ccc(-c4cnc(N)nc4)cc3)C3CC3)no2)cn1 | -3.06 |
| CC(=O)Nc1nc(CN2CCC[C@H](Cc3cc(C)nc(C)c3)C2)cs1 | 7.45 |
| COc1cc(-c2cn(C3CCc4ccccc4N(CC(F)(F)F)C3=O)nn2)ccc1-n1ccc(C)n1 (stereo not drawn) | -17.3 |
| O=C(O)c1cc(-c2ccc(C3CCNCC3)cc2)c2ccc(-c3ccc(C(F)(F)F)cc3)cc2c1 | 33.5 |
| O=C(NC[C@@H]1[C@H]2CN(C(=O)OCc3cc(C(F)(F)F)cc(C(F)(F)F)c3)C[C@@H]12)c1ccc2[nH]nnc2c1 | -1.41 |
| C[C@@H]1CN(c2cc(-c3nn(C)c4ccc(OC5(C)CC5)cc34)ncn2)C[C@H](C)O1 | 10.2 |
| CNC(=O)Nc1ccc2c(c1)[C@]1(CC2)OC(=O)N(CC(=O)N(Cc2ccc(F)cc2)[C@@H](C)C(F)(F)F)C1=O | 9.73 |
| CC(=O)Nc1c(F)cc(C(=O)N[C@H]2CC[C@H](O)CC2)cc1O[C@@H](C)c1ccccc1 | -6.01 |
| CC1=C(C#N)[C@@H](c2ccc3[nH]nc(C)c3c2)C(C#N)=C(c2ccc(Cl)cc2)N1 | 7.73 |
| O=C([C@H]1C[C@H](O)CN1c1ccc(Cl)cc1)N1CC2COCC(C1)N2Cc1ccc(Cl)cc1 | -7.34 |
| CC(=O)c1c(NS(C)(=O)=O)c2cc(-c3ccc(Cl)cc3)c(-c3ccc(Cl)cc3Cl)nc2n(C)c1=O | 15.9 |
| Cc1nc(Cc2cccc(C(F)(F)F)c2)sc1-c1ccc(C(N)=O)nc1 | -5.68 |
| Cc1c[nH]c2nccc(Oc3c(F)cc(Nc4cc(Cl)nc(N)n4)cc3F)c12 | -11.6 |
| O[C@]1(C(F)(F)F)CCCC[C@H]1Nc1ccc(F)cc1 | -2.73 |
| CCOC(=O)c1cc2cc(-c3cc(C(=O)NCc4ccc(C(=O)O)cc4)nn3C)ccc2[nH]1 | -10.6 |
| CN1CCN(C(=O)C(C)(C)c2ccc(C(=O)Nc3cn4cc(-c5ccncc5)ccc4n3)cc2)CC1 | -12.4 |
| C[C@@]1(Cc2ccc(C#N)cc2)C(=O)N(c2cc(Cl)cc(Cl)c2)c2ncc(C(=O)NC3(c4nc(C5CCC5)no4)CC3)n21 | 8.28 |
| COCc1nc2cnc3cc(-c4c(C)noc4C)c(OC[C@H]4CCNC4)cc3c2n1[C@H](C)c1ccccc1 | 17 |
| CC1=C(C#N)C(c2ccc3c(c2)c(NC(=O)c2ccccc2C)nn3C)C(C#N)=C(C)N1 | 4.71 |
| CC(C)(O)c1cncc(-c2nc3ccc(F)cc3n2C2CC2)c1 | 2.58 |

Sample 3 — cell line: A-375; tested at: 100 µM; time: 18 h
| SMILES | viability [%] |
| --- | --- |
| CC(C)[C@@H]1CC[C@@H](C)C[C@H]1O | 108 |
| CC(N)[C@]12C[C@H]3C[C@H](C[C@H](C3)C1)C2 (stereo partly drawn) | 73.7 |
| NC[C@@H]1O[C@H](O[C@H]2[C@@H](O)[C@H](O[C@@H]3[C@@H](O)[C@H](N)C[C@H](N)[C@H]3O[C@H]3O[C@H](CN)[C@@H](O)[C@H](O)[C@H]3N)O[C@@H]2CO)[C@H](N)[C@@H](O)[C@@H]1O | 106 |
| COc1ccc2c(c1)C(=O)N(CCc1ccc(S(=O)(=O)NC(=O)NC3CCCCC3)cc1)C(=O)C2(C)C | 68.3 |
| CCOC(=O)C1=C(C)NC(C)=C(C(=O)OCC)C1c1ccccc1/C=C/C(=O)OC(C)(C)C | 9.9 |
| c1cc(CN2CCCNCCNCCCNCC2)ccc1CN1CCCNCCNCCCNCC1 | 106 |
| Nc1c(CC(=O)O)cccc1C(=O)c1ccccc1 | 108 |
| CC[C@H]1OC(=O)[C@H](C)[C@@H](O[C@H]2C[C@@](C)(OC)[C@@H](O)[C@H](C)O2)[C@H](C)[C@@H](O[C@@H]2O[C@H](C)C[C@H](N(C)C)[C@H]2O)[C@](C)(O)C[C@@H](C)/C(=N\OCOCCOC)[C@H](C)[C@@H](O)[C@]1(C)O | 73 |

Sample 4 — method: phase 2a trial; host: idiopathic pulmonary fibrosis patients
SMILES: CC(C)n1cnc(-c2ccc(F)cc2)c1-c1ncc(C(=O)Nc2ccc(N3CCN(C)CC3)cc2)[nH]1
| dose | setting | patients with nasopharyngitis [%] |
| --- | --- | --- |
| 60 mg once daily | grade 4 emergent event | 0 |
| all arms pooled | grade 1 emergent event | 0 |
| 30 mg once daily | grade 4 emergent event | 0 |
| 60 mg once daily | grade 3 emergent event | 0 |
| 30 mg once daily | grade 5 emergent event | 0 |
| all arms pooled | grade 2 emergent event | 0 |

A few entries again (sample 1):
| target | remaining activity |
| --- | --- |
| Serine/threonine-protein kinase VRK1 (VRK1, Homo sapiens, UniProt Q99986) | 92.2% |
| BDNF/NT-3 growth factors receptor (NTRK2, Homo sapiens, UniProt Q16620) | 89.7% |
| Phosphorylase b kinase gamma catalytic chain, liver/testis isoform (PHKG2, Homo sapiens, UniProt P15735) | 82.6% |
